{"data": "Measured values pooled from the literature", "note": "Each numbered part is a random draw from the data of one study; scales do not carry over between parts.", "chain of UniProt Q8NE63 (whole entry, looked up)": "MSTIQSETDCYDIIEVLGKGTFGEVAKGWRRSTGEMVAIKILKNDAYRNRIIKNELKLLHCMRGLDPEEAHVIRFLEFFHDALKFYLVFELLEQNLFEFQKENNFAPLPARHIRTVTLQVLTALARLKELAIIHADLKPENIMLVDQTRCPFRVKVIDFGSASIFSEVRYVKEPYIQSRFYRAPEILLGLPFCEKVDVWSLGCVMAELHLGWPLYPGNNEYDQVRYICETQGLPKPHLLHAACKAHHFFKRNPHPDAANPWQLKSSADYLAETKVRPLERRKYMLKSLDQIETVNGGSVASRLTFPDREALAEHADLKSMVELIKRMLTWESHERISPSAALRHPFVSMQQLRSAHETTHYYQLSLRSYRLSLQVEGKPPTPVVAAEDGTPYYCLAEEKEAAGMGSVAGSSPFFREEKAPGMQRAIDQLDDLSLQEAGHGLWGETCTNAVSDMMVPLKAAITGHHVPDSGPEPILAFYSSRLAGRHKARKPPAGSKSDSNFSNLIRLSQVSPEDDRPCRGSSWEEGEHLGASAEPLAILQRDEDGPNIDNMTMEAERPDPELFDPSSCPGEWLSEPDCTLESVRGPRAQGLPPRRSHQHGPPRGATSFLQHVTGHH", "chain of UniProt P07949 (whole entry, unmodified, looked up)": "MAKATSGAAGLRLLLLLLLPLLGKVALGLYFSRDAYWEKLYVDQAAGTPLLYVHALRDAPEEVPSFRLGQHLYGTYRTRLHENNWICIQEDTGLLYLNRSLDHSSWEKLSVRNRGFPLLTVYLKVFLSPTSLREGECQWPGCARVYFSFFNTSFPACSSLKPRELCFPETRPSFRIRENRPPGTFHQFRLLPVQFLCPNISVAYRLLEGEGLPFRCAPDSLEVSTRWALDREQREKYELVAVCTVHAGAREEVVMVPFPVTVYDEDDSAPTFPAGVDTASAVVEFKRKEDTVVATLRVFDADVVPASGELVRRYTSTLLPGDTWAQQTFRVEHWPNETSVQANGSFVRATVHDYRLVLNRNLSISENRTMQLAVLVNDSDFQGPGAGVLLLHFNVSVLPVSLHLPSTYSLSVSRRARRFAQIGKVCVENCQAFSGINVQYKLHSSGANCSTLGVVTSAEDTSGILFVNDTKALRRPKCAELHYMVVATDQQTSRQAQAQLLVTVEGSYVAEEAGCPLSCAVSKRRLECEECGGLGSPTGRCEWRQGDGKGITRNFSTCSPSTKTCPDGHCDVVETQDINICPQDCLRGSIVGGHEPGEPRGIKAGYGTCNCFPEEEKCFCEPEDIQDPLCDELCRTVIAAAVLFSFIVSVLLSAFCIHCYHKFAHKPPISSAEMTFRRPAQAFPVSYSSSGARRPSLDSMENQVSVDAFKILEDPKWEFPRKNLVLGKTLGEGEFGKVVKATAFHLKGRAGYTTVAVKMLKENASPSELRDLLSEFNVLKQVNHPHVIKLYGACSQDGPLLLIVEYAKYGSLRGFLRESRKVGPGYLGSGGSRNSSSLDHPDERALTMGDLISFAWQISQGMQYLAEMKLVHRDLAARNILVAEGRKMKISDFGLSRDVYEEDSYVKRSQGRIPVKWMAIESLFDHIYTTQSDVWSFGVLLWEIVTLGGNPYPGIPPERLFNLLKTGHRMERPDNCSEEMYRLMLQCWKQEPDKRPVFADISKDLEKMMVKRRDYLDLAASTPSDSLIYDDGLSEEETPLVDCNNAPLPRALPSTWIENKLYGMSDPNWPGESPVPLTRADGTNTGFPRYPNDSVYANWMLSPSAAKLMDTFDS", "chain of UniProt Q9UM73 (whole entry, unmodified, looked up)": "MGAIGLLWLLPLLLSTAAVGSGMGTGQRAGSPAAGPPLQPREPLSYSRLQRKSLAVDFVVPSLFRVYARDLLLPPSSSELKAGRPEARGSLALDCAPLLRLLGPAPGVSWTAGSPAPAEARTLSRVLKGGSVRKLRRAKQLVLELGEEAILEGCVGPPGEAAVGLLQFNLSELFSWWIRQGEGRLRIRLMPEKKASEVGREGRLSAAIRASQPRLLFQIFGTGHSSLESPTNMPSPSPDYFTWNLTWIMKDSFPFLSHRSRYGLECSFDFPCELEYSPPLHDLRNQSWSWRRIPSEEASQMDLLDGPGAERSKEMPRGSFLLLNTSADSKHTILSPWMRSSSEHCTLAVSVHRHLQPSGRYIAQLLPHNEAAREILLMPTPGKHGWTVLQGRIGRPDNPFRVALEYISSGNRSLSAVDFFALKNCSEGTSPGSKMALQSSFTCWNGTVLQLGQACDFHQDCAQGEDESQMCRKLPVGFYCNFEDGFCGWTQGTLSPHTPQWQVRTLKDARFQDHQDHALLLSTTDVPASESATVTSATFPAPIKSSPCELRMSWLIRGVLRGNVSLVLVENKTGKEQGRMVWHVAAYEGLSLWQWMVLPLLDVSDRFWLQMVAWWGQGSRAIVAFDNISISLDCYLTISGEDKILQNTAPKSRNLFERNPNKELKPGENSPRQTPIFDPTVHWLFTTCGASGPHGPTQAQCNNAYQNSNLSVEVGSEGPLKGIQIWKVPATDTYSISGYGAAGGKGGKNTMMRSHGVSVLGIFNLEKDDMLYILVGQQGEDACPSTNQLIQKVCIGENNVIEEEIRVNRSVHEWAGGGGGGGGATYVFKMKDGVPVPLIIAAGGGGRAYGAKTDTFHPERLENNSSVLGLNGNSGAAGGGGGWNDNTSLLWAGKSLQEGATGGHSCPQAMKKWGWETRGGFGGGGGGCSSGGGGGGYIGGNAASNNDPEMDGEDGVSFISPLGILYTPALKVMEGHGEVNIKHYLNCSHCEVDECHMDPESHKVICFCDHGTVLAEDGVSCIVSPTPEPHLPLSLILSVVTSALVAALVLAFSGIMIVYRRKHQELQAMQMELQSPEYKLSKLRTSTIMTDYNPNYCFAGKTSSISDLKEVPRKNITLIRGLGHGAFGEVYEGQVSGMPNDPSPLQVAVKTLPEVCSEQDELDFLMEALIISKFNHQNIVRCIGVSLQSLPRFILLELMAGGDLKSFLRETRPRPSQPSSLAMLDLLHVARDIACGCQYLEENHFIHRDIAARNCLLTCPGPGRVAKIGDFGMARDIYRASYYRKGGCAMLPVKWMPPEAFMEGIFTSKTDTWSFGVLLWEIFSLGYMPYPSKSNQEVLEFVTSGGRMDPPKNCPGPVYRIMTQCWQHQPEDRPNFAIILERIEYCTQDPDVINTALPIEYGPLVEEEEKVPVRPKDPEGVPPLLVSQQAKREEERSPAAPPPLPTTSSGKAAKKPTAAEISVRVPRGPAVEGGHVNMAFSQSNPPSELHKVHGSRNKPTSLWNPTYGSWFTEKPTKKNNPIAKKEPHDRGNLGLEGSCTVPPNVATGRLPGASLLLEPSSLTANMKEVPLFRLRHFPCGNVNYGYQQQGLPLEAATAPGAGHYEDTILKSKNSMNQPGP", "chain of UniProt Q96PF2 (whole entry, looked up)": "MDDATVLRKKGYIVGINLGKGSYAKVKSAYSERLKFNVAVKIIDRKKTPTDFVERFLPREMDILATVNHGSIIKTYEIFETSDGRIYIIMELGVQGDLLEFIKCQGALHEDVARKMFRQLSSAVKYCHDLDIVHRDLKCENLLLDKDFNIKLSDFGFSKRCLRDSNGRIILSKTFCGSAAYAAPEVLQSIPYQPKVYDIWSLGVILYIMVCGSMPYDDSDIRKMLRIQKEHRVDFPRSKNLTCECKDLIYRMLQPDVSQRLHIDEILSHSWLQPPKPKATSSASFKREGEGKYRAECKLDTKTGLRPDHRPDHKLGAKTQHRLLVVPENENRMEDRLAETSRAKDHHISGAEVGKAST", "chain of UniProt P30530 (whole entry, looked up)": "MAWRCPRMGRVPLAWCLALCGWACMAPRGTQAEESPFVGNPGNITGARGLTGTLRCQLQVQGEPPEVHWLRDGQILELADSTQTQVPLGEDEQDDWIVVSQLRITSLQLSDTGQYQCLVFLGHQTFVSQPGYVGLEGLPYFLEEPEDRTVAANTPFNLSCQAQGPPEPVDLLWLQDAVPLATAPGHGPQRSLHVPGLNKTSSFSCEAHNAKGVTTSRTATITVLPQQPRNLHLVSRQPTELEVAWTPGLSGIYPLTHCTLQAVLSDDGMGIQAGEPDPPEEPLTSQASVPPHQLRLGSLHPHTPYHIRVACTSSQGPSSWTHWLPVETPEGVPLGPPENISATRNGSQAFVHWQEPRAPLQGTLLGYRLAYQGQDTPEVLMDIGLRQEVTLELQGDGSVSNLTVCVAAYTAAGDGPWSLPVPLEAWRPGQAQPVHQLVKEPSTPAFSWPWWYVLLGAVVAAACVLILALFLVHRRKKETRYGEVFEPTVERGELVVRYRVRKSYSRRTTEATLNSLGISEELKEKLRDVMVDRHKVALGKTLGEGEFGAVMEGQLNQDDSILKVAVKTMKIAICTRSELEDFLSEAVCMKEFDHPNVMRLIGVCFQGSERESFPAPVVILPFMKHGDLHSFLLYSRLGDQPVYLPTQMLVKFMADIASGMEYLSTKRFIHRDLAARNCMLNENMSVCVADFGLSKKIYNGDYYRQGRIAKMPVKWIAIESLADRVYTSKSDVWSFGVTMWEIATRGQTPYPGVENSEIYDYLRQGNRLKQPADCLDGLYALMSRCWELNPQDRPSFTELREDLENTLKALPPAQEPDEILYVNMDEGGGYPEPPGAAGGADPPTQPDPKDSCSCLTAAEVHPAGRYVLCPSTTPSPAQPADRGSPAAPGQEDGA", "chain of UniProt P45984 (whole entry, looked up)": "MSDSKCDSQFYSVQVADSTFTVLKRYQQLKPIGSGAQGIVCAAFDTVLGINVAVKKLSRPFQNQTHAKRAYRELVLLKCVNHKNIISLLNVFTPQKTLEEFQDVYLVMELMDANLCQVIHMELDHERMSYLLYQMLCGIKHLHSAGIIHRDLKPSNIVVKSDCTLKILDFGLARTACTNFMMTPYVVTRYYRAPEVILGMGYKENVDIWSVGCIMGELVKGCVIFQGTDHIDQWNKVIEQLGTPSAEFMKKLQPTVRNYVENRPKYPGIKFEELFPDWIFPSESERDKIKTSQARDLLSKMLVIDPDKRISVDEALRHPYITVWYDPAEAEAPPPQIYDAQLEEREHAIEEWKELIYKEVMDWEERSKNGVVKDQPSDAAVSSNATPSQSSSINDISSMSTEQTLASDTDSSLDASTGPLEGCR"}
{"data": "Set 1", "organism": "Sarcocystis neurona", "read-out": "parasite growth", "concentration": "10 µM"}
{"Structure (SMILES)": "CN(C)CCCC1(c2ccc(F)cc2)OCc2cc(C#N)ccc21 (stereo not shown)", "inhibition [%]": 3.8}
{"Structure (SMILES)": "CN1CCN(CC/C=C2/c3ccccc3Sc3ccc(S(=O)(=O)N(C)C)cc32)CC1", "inhibition [%]": 65.9}
{"Structure (SMILES)": "Cl.NC[C@H](O)c1ccc(O)c(O)c1", "inhibition [%]": -30.4}
{"Structure (SMILES)": "CN(C)CCOC(c1ccccc1)c1ccccc1", "inhibition [%]": -24.5}
{"Structure (SMILES)": "CC1(C)O[C@@H]2C[C@H]3[C@@H]4C[C@H](F)C5=CC(=O)C=C[C@]5(C)[C@H]4[C@@H](O)C[C@]3(C)[C@]2(C(=O)CO)O1", "inhibition [%]": -31.6}
{"Structure (SMILES)": "CC1CCN(CCCC(=O)c2ccc(F)cc2)CC1.Cl", "inhibition [%]": -20.6}
{"Structure (SMILES)": "COc1cc(C)c(Cc2cnc(N)nc2N)cc1OC", "inhibition [%]": 59.6}
{"Structure (SMILES)": "CCOC(=O)c1ncn2c1CN(C)C(=O)c1cc(F)ccc1-2", "inhibition [%]": -20.1}
{"Structure (SMILES)": "CCC1(c2ccccc2)C(=O)NCNC1=O", "inhibition [%]": -26.9}
{"Structure (SMILES)": "Cc1nc2ccc(CN(C)c3ccc(C(=O)N[C@@H](CCC(=O)O)C(=O)O)s3)cc2c(=O)[nH]1", "inhibition [%]": -25.7}
{"Structure (SMILES)": "CO[C@@H]1[C@@H](O[C@@H]2O[C@H](C)[C@@H](O[C@H]3C[C@@](C)(O)[C@@H](OC(=O)CC(C)C)[C@H](C)O3)[C@H](N(C)C)[C@H]2O)[C@@H](CC=O)C[C@@H](C)[C@@H](O)/C=C/C=C/C[C@@H](C)OC(=O)C[C@H]1OC(C)=O", "inhibition [%]": 34.7}
{"Structure (SMILES)": "Cc1ccnc2c1NC(=O)c1cccnc1N2C1CC1", "inhibition [%]": -23.5}
{"Structure (SMILES)": "COc1ccc(/C=C/C(=O)Nc2ccccc2C(=O)O)cc1OC", "inhibition [%]": 49.1}
{"data": "Set 2", "host": "human", "matrix": "microsomes or S9", "concentration": "2 µM", "time": "0.5 h"}
{"Structure (SMILES)": "CCC(Oc1ccccc1F)C(=O)Nc1c(C)cccc1C (stereo not shown)", "remaining compound": "4.89%"}
{"Structure (SMILES)": "Cc1nc(-c2cc(C(=O)OCc3cc(F)cc4c3OCOC4)n(C)c2)cs1", "remaining compound": "10.1%"}
{"Structure (SMILES)": "Cc1ccc(C(=O)N2CCc3c([nH]cnc3=O)C2)s1", "remaining compound": "54.7%"}
{"Structure (SMILES)": "CCOC(=O)N1CCN(CC(O)COc2ccc(C(C)C)c(C)c2)CC1 (stereo not shown)", "remaining compound": "> 100%"}
{"Structure (SMILES)": "Fc1ccc2nc(-n3cncn3)c(-c3ccc(Cl)cc3Br)c(Cl)c2c1", "remaining compound": "91.5%"}
{"Structure (SMILES)": "CC1CC(N(C(=O)Nc2ccccc2)c2ccccc2)c2ccccc2N1C(=O)c1ccco1 (stereo not shown)", "remaining compound": "1.28%"}
{"Structure (SMILES)": "CC(C)(C)OC(=O)N[C@@H](CC(=O)N1CCN(S(C)(=O)=O)CCN1)Cc1cc(F)c(F)cc1F", "remaining compound": "32.7%"}
{"Structure (SMILES)": "O=c1c2c3nc4ccccc4nc3n(C3CCCC3)c2ncn1Cc1ccco1", "remaining compound": "68%"}
{"Structure (SMILES)": "CCCn1c(N)c(N(CCOC)C(C)=O)c(=O)n(CC(=O)Nc2cc(Cl)cc(Cl)c2)c1=O", "remaining compound": "53.7%"}
{"Structure (SMILES)": "CN1CCC2(CCCN2Cc2ccc(Cl)cc2Br)CC1", "remaining compound": "93.3%"}
{"Structure (SMILES)": "O=S(=O)(c1ccccc1)n1ccc2ncccc21", "remaining compound": "29.7%"}
{"data": "Set 3", "Compound": "c1ccc(N2CCN(Cc3nc4ccccc4[nH]3)CC2)nc1", "technique": "competition with immobilised ligand", "concentration": "1 µM"}
{"target": "Receptor-type tyrosine-protein kinase FLT3 (FLT3, Homo sapiens, UniProt P36888, D835Y)", "read-out": "binding", "remaining binding [%]": 100}
{"target": "SNF-related serine/threonine-protein kinase (SNRK, Homo sapiens, UniProt Q9NRH2)", "read-out": "binding", "remaining binding [%]": 100}
{"target": "Serine/threonine-protein kinase N2 (PKN2, Homo sapiens, UniProt Q16513)", "read-out": "binding", "remaining binding [%]": 100}
{"target": "Serine/threonine-protein kinase 24 (STK24, Homo sapiens, UniProt Q9Y6E0)", "read-out": "binding", "remaining binding [%]": 100}
{"target": "Receptor-type tyrosine-protein kinase FLT3 (FLT3, Homo sapiens, UniProt P36888, K663Q)", "read-out": "binding", "remaining binding [%]": 100}
{"target": "Ribosomal protein S6 kinase alpha-4, C-terminal kinase domain (RPS6KA4, Homo sapiens, UniProt O75676)", "read-out": "binding", "remaining binding [%]": 100}
{"target": "Serine/threonine-protein kinase 4 (STK4, Homo sapiens, UniProt Q13043)", "read-out": "binding", "remaining binding [%]": 100}
{"target": "Serine/threonine-protein kinase NLK (NLK, Homo sapiens, UniProt Q9UBE8)", "read-out": "binding", "remaining binding [%]": 100}
{"target": "Tyrosine-protein kinase Lyn (LYN, Homo sapiens, UniProt P07948)", "read-out": "cell-free assay", "remaining binding [%]": 100}
{"target": "Serine/threonine-protein kinase RIO1 (RIOK1, Homo sapiens, UniProt Q9BRS2)", "read-out": "binding", "remaining binding [%]": 86}
{"target": "Serine/threonine-protein kinase Sgk2 (SGK2, Homo sapiens, UniProt Q9HBY8)", "read-out": "binding", "remaining binding [%]": 100}
{"target": "Mitogen-activated protein kinase kinase kinase 1 (MAP3K1, Homo sapiens, UniProt Q13233)", "read-out": "binding", "remaining binding [%]": 99}
{"target": "Proto-oncogene tyrosine-protein kinase receptor Ret (RET, Homo sapiens, UniProt P07949, M918T)", "read-out": "cell-free assay", "remaining binding [%]": 100}
{"target": "ALK tyrosine kinase receptor (ALK, Homo sapiens, UniProt Q9UM73, C1156Y)", "read-out": "cell-free assay", "remaining binding [%]": 100}
{"target": "Calcium/calmodulin-dependent protein kinase type 1 (CAMK1, Homo sapiens, UniProt Q14012)", "read-out": "cell-free assay", "remaining binding [%]": 100}
{"target": "Epidermal growth factor receptor (EGFR, Homo sapiens, UniProt P00533, del747-752/P753S)", "read-out": "cell-free assay", "remaining binding [%]": 100}
{"target": "Cyclin-dependent kinase 11A (CDK11A, Homo sapiens, UniProt Q9UQ88)", "read-out": "binding", "remaining binding [%]": 100}
{"target": "Homeodomain-interacting protein kinase 4 (HIPK4, Homo sapiens, UniProt Q8NE63)", "read-out": "binding", "remaining binding [%]": 91}
{"target": "Ephrin type-A receptor 1 (EPHA1, Homo sapiens, UniProt P21709)", "read-out": "cell-free assay", "remaining binding [%]": 100}
{"target": "Tyrosine-protein kinase Mer (MERTK, Homo sapiens, UniProt Q12866)", "read-out": "binding", "remaining binding [%]": 90}
{"target": "Mitogen-activated protein kinase 9 (MAPK9, Homo sapiens, UniProt P45984)", "read-out": "binding", "remaining binding [%]": 100}
{"target": "Myosin light chain kinase 2, skeletal/cardiac muscle (MYLK2, Homo sapiens, UniProt Q9H1R3)", "read-out": "binding", "remaining binding [%]": 91}
{"target": "Vascular endothelial growth factor receptor 1 (FLT1, Homo sapiens, UniProt P17948)", "read-out": "cell-free assay", "remaining binding [%]": 100}
{"target": "Leucine-rich repeat serine/threonine-protein kinase 2 (LRRK2, Homo sapiens, UniProt Q5S007, G2019S)", "read-out": "binding", "remaining binding [%]": 100}
{"target": "Cyclin-dependent kinase-like 2 (CDKL2, Homo sapiens, UniProt Q92772)", "read-out": "binding", "remaining binding [%]": 100}
{"data": "Set 4", "Structure (SMILES)": "COc1ccc2c(c1)c(C1=C(c3c[nH]c4ccccc34)C(=O)NC1=O)cn2CCCN(C)C", "read-out": "enzyme activity", "action": "inhibitor", "concentration": "0.5 µM", "reference": "control"}
{"target": "Ephrin type-B receptor 4 (EPHB4, Homo sapiens, UniProt P54760)", "remaining activity [%]": 94.2}
{"target": "MAP kinase-activated protein kinase 3 (MAPKAPK3, Homo sapiens, UniProt Q16644)", "remaining activity [%]": 92.3}
{"target": "Phosphorylase b kinase gamma catalytic chain, skeletal muscle/heart isoform (PHKG1, Homo sapiens, UniProt Q16816)", "remaining activity [%]": 66.4}
{"target": "Cyclin-dependent kinase 1, with cyclin B (CDK1, Homo sapiens, UniProt P06493)", "remaining activity [%]": 94.4}
{"target": "Ribosomal protein S6 kinase alpha-6 (RPS6KA6, Homo sapiens, UniProt Q9UK32)", "remaining activity [%]": 4.52}
{"target": "Mitogen-activated protein kinase kinase kinase kinase 4 (MAP4K4, Homo sapiens, UniProt O95819)", "remaining activity [%]": 37.8}
{"target": "Serine/threonine-protein kinase 17A (STK17A, Homo sapiens, UniProt Q9UEE5)", "remaining activity [%]": 84}
{"target": "Homeodomain-interacting protein kinase 4 (HIPK4, Homo sapiens, UniProt Q8NE63)", "remaining activity [%]": 101}
{"target": "Testis-specific serine/threonine-protein kinase 2 (TSSK2, Homo sapiens, UniProt Q96PF2)", "remaining activity [%]": 85.5}
{"target": "Tyrosine-protein kinase Blk (BLK, Homo sapiens, UniProt P51451)", "remaining activity [%]": 78.8}
{"target": "Cyclin-dependent kinase 4, with cyclin D3 (CDK4, Homo sapiens, UniProt P11802)", "remaining activity [%]": 95.5}
{"target": "Tyrosine-protein kinase Srms (SRMS, Homo sapiens, UniProt Q9H3Y6)", "remaining activity [%]": 95.9}
{"target": "Ephrin type-B receptor 1 (EPHB1, Homo sapiens, UniProt P54762)", "remaining activity [%]": 91.7}
{"target": "Serine/threonine-protein kinase 16 (STK16, Homo sapiens, UniProt O75716)", "remaining activity [%]": 93.1}
{"target": "Tyrosine-protein kinase receptor UFO (AXL, Homo sapiens, UniProt P30530)", "remaining activity [%]": 98.7}
{"target": "Tyrosine-protein kinase ABL1 (ABL1, Homo sapiens, UniProt P00519)", "remaining activity [%]": 107}
{"target": "Homeodomain-interacting protein kinase 2 (HIPK2, Homo sapiens, UniProt Q9H2X6)", "remaining activity [%]": 96.3}
{"target": "Dual specificity tyrosine-phosphorylation-regulated kinase 3 (DYRK3, Homo sapiens, UniProt O43781)", "remaining activity [%]": 81}
{"target": "Ephrin type-A receptor 4 (EPHA4, Homo sapiens, UniProt P54764)", "remaining activity [%]": 94.5}
{"target": "Ribosomal protein S6 kinase alpha-5 (RPS6KA5, Homo sapiens, UniProt O75582)", "remaining activity [%]": 61.3}
{"target": "3-phosphoinositide-dependent protein kinase 1 (PDPK1, Homo sapiens, UniProt O15530)", "remaining activity [%]": 76.7}
{"target": "Calcium/calmodulin-dependent protein kinase type II subunit beta (CAMK2B, Homo sapiens, UniProt Q13554)", "remaining activity [%]": 89.9}
{"target": "Serine/threonine-protein kinase WNK3 (WNK3, Homo sapiens, UniProt Q9BYP7)", "remaining activity [%]": 92}
{"target": "Cyclin-dependent kinase 6, with cyclin D3 (CDK6, Homo sapiens, UniProt Q00534)", "remaining activity [%]": 85}
